Measurements from different studies.
Genome polyprotein NS2B-NS3 protease: Genome polyprotein, NS2B-NS3 protease (dengue virus type 2, UniProt P29990)

NC(=O)c1ccccc1NC(=O)c1cc(-c2ccccc2)n(-c2ccccc2)n1 — inhibition (Genome polyprotein NS2B-NS3 protease; enzyme activity, fluorogenic AMC substrate; 50 µM): 98%
C/C=C/C(=O)Nc1ccc2nc(NCCCCCN(C)C)nc(NCCCCCCN(C)C)c2c1 — inhibition (KMT2A (Homo sapiens, UniProt Q03164); enzyme activity, inhibitor, radiometric; 50 µM): 16%
N#Cc1cc(NC(=O)c2cc(-c3ccccc3)n(-c3ccccc3)n2)ccc1N1CCCC1 — inhibition (Genome polyprotein NS2B-NS3 protease; enzyme activity, fluorogenic AMC substrate; 50 µM): 63%
CCCCCCCCCCCCCCCC(=O)N[C@@H](CCCCN)C(=O)N[C@@H](CCCCN)C(=O)N[C@@H](CO)C(=O)N[C@@H](CCCNC(=N)N)C(=O)N[C@@H](C)C(=O)N[C@@H](CC(C)C)C(=O)N[C@@H](Cc1ccccc1)C(N)=O — inhibition (F2RL3 (Homo sapiens, UniProt Q96RI0); platelet aggregation, ex vivo LTA; human; 0.5 mg/kg, 4 to 6 h, added: AYPGKF 160 µM; baseline: baseline): 34%
O=C1c2sc(-c3ccc(N4CCC(CO)CC4)nc3F)nc2CCN1c1cccnc1 — inhibition (CNR2 (Homo sapiens, UniProt P34972); ligand displacement, radioligand; 1 µM): -13%
CN(C)C/C=C/C(=O)Nc1ccc2nc(NCCCCCN(C)C)nc(NCCCCCCN(C)C)c2c1 — inhibition (PRMT9 (Homo sapiens, UniProt Q6P2P2); enzyme activity, inhibitor, radiometric; 10 µM): 57%
O=C1c2sc(-c3ccc(N4CCC(F)C4)nc3F)nc2CCN1c1cccnc1 (stereo not drawn) — inhibition (CCR2 (Homo sapiens, UniProt P41597); ligand displacement, radioligand; 1 µM): -7%
Cc1ccc(-n2nc(C(N)=O)cc2-c2ccc(CC(C)C)cc2)cc1 — inhibition (Genome polyprotein NS2B-NS3 protease; enzyme activity, fluorogenic AMC substrate; 50 µM): 64%
C[Si](C)(C)C[C@@H](CN)CC(=O)O — inhibition (TACR2 (Homo sapiens, UniProt P21452); ligand displacement, radioligand; 75 µM): -13%

A few entries again:
N#Cc1cc(NC(=O)c2cc(-c3ccccc3)n(-c3ccccc3)n2)ccc1N1CCCC1 — inhibition (Genome polyprotein NS2B-NS3 protease; enzyme activity, fluorogenic AMC substrate; 50 µM): 63%
